Measurements gathered from unrelated publications.
Each line is one published result; not all experiments were run side by side.
Effect on: reporter gene
lasR: Transcriptional activator protein LasR (lasR, Pseudomonas aeruginosa, UniProt P25084)

CCCCCCCCCC(=O)CC(=O)Nc1ccccc1O  EC50 (lasR; agonist; PAO-JP2 pump active): 17 µM
O=C(NCc1cccc([N+](=O)[O-])c1)c1ccccc1[N+](=O)[O-]  EC50 (lasR; agonist; Escherichia coli, JLD271 LasR reporter): 25 µM
CCCCCC(=O)CC(=O)N[C@H]1CCOC1=O  EC50 (lasR; agonist; PAO-JP2 pump active): > 200 µM
CS(=O)(=O)c1cccc(OCCCC(=O)N[C@H]2CCOC2=O)c1  EC50 (lasR; agonist): 10 µM
O=C(Cn1cc(C2CCCC2)nn1)N[C@H]1CCOC1=O  IC50 (lasR; antagonist): 16.3 µM
CS(=O)(=O)c1cccc(OCCCC(=O)NC2CC3CC3C2O)c1 (stereo not drawn)  EC50 (lasR (Pseudomonas aeruginosa, UniProt P25084, A127W); agonist; Escherichia coli lasB-lux reporter): > 100 µM
O=C(CCCCCCCCCN=C=S)CC(=O)N[C@H]1CCOC1=O  EC50 (lasR; agonist; PAO-JP2 pump active): 2.6 µM
O=C(Cn1cc(-c2ccccc2)nn1)N[C@H]1CCOC1=O  IC50 (lasR; antagonist): 15.9 µM
CCCCCCCCCCCCNC(=O)CC(=O)c1ccccc1  IC50 (lasR; antagonist; Pseudomonas aeruginosa PAO-JP2 GFP reporter; together with: 150 nM OdDHL): 0.7 µM
